Experimental data of several laboratories.
Protocols differ between the studies behind these lines. ± gives the spread as reported.

| Compound | assay | test system | setting | how to read | endpoint | result |
| --- | --- | --- | --- | --- | --- | --- |
| COc1cc(NC(C)=O)c2c(c1O)-c1c(OC)c(OC)cc3c1C(C2)N(C)CC3 (stereo not shown) |  | rat heart homogenate | 100 µg/mL, 24 h, room temperature, post-preparative storage |  | remaining compound | 95.4 ± 3.2% |
| CCCC[C@@H]1NC(=O)[C@@H](NC(=O)[C@H](CCC(=O)O)NC(=O)CNC(=O)CN2CCN(CC(=O)O)CCN(CC(=O)O)CCN(CC(=O)O)CC2)CCCCNC(=O)C[C@@H](C(N)=O)NC(=O)[C@H](C(C)C)NC(=O)[C@@H]2CCCN2C(=O)[C@H](CCCNC(=N)N)NC(=O)CNC(=O)[C@H](Cc2c[nH]c3ccccc23)NC(=O)[C@H](CCCNC(=N)N)NC(=O)[C@@H](Cc2ccccc2)NC(=O)[C@H](Cc2c[nH]cn2)NC(=O)[C@H](CCC(=O)O)NC1=O [gallium-67 labelled] |  | C57 mice, B16/F1 flank melanoma, tumour | intravenous, 0.037 MBq, 4 h |  | tumour uptake | 8.12 ± 0.6 %ID/g |
| NC[C@@H](C(=O)Nc1ccc(-c2cn[nH]c2)cc1)c1ccccc1 | OECD 405 eye irritation | New Zealand White rabbit, eye | topical, 0.1%, 80 h (day 4), scale 0 to 3 | direction not given | conjunctival redness score | 0 |
| CCCC(CCC)NC(=O)c1ccc(OC2OC(C(=O)O)C(O)C(O)C2O)c(OC)c1 (stereo not shown) |  | male Sprague-Dawley rats, plasma | oral, 200 mg/kg of parent drug | relative to: 200 over 20 mg/kg dose | Cmax ratio | 3.8 |
| Cn1c(=O)oc2ccc(-c3ccc(CC(C#N)NC(=O)C4CNCCCO4)c(F)c3)cc21 (stereo not shown) | item: macule | human | 60 mg single dose, fasted |  | subjects with TRAE | 0% |
| CC(C)c1cnc(-c2cc(Cl)ccc2F)cc1Nc1ccncc1C(=O)NC(CO)CO |  | human, advanced solid tumour | oral, dose not given, phase I monotherapy |  | ALT increase incidence, all grades | 23.8% |
| Oc1cccc(-c2cccc(O)n2)n1.[Cl-].[Cl-].[Ru+2].c1cnc2c(c1)c1c(c3cccnc32)OCCO1.c1cnc2c(c1)c1c(c3cccnc32)OCCO1 | shake flask | octanol/phosphate buffer | pH 8.00 |  | logD | 2.1 |
| CCc1cc(Nc2nc(-c3ccc(-n4cnc(C)c4)c(F)c3)cs2)c(C)cc1C |  | human, both sexes, plasma | oral, 100 mg, day 1, multiple dose, geometric mean |  | terminal elimination rate constant | 2.58e-05 s⁻¹ |
| [11CH3]c1ccc2nc(C3CCC3)n(-c3ccc4[nH]ncc4c3)c2n1 | extrapolated from mouse biodistribution | human female |  |  | effective dose | 4.9 µSv/MBq |
| C=C(c1ncc(C(=O)O)cn1)c1cc2c(cc1C)C(C)(C)CCC2(C)C |  | Sprague-Dawley rat, male | oral, 100 mg/kg, 2 h, sesame oil vehicle |  | blood cholesterol | 92 ± 17.5 mg/dL |
| CN1CCC[C@]1(C)/C=C/S(=O)(=O)NC(=O)Nc1c2c(cc3c1CCC3)CCC2 |  | human, urine | oral, 50 mg single dose |  | percent of dose in urine | 69.1% |
| C#CCOc1ccc(/C=C2\SC(=O)N(CC(=O)NCc3ccccc3)C2=O)cc1 | inverse Kirkwood-Buff integrals | binary solvent mixture | 298.15 K, mole fraction x1 0.80 |  | Kirkwood-Buff integral G1,3 | -259 cm³/mol |
| COC(=O)c1ccc2c(c1)NC(=O)/C2=C(\Nc1ccc2c(c1)CCN2C(=O)CN1CCOCC1)c1ccccc1 |  | CD-1 mice, blood | intravenous |  | Vss relative to total body water | ~2.5 |
| CC(C)(C)ONc1nc(Nc2ccnc(C(F)(F)F)c2)nc(-c2cccc(C(F)(F)F)n2)n1 |  | female Balb/cA nude mice xenograft | oral, 54.14 mg/kg, AUC(0-24 h) | relative to: tumour over plasma | tissue/plasma ratio | 4.8 |
| CC(C)[C@H](NC(=O)CNC(=O)[C@H](CCC(N)=O)NC(=O)[C@H](C)N)C(=O)O | LC-MS/MS | human, plasma | intravenous, 30 mg/kg three times daily, day 2, first dose, 10 min infusion, geometric mean |  | AUC(0-last) | 0.56 µg·h/mL |
| COc1ccc(/C=C/c2ccc(-c3ccc(C)cn3)nc2)cc1 | TCSPC | water, HEPES 100 mM | pH 7.4, zinc-free ligand |  | radiative decay rate constant | 0.04 ns⁻¹ |
| CC1=C(C=O)C(C)(C)CC=C1 |  | rat blood | 1000 nM, 60 min |  | blood-to-plasma ratio | 0.24 ± 0.03 |
| CCC(c1nnnn1Cc1cccs1)N1CCN(c2nc3cc(N)cc(F)c3s2)CC1 (stereo not shown) | light scattering | DNase I buffer | 5% DMSO |  | critical aggregation concentration | 42.5 µM |
| CN1C(=O)c2cccc3c2C1=Cc1ccccc1N3Cc1cccc(NC2CCN([11CH3])CC2)c1 | PET/CT | C57BL/6 mouse male, heart | intravenous, 5 min |  | SUV | 0.23 |
| CC(C)(O)c1ncc([S@](N)(=O)=NC(=O)Nc2c3c(cc4c2CCC4)CCC3)s1 |  | healthy human subjects, all study parts | oral, dose not given |  | subjects with general disorders | 27% |

| Compound | assay | test system | setting | how to read | endpoint | result |
| --- | --- | --- | --- | --- | --- | --- |
| CCCC[C@H](NC(C)=O)C(=O)N[C@H]1CC(=O)NCCCC[C@@H](C(=O)N[C@@H](C(=O)N2CCC[C@@H]2C(N)=O)C(C)C)NC(=O)[C@H](Cc2c[nH]c3ccccc23)NC(=O)[C@H](CCCN=C(N)N)NC(=O)[C@@H](Cc2ccc3ccccc3c2)NC(=O)[C@@H]2CCCN2C1=O |  | healthy dogs, plasma | subcutaneous, 2.25 mg/kg per day, day 28, 2 h post-dose, median |  | plasma histamine | 18.1 ng/mL |
| CCCCCCCCCCCCCCCC(=O)N[C@@H](CCC(=O)NCCCC[C@H](NC(=O)[C@H](CC(=O)O)NC(=O)[C@H](CO)NC(=O)[C@@H](NC(=O)[C@H](Cc1ccccc1)NC(=O)[C@@H](NC(=O)CNC(=O)[C@H](CCC(N)=O)NC(=O)[C@H](CO)NC(=O)[C@@H](N)Cc1c[nH]cn1)[C@@H](C)O)[C@@H](C)O)C(=O)N[C@@H](CO)C(=O)N[C@@H](CCC(=O)O)C(=O)N[C@@H](Cc1ccc(O)cc1)C(=O)N[C@@H](CC(C)C)C(=O)N[C@@H](CC(=O)O)C(=O)N[C@@H](CO)C(=O)N[C@@H](CCC(=O)O)C(=O)N[C@@H](CCCNC(=N)N)C(=O)N[C@@H](C)C(=O)N[C@@H](CCCNC(=N)N)C(=O)N[C@@H](CC(=O)O)C(=O)N[C@@H](Cc1ccccc1)C(=O)N[C@H](C(=O)N[C@@H](C)C(=O)N[C@@H](Cc1c[nH]c2ccccc12)C(=O)N[C@@H](CC(C)C)C(=O)N[C@@H](CCC(=O)O)C(=O)N[C@@H](C)C(=O)NCC(=O)NCC(=O)O)C(C)C)C(=O)O |  | cynomolgus monkey, plasma | subcutaneous, dose not given, single dose |  | terminal half-life | 5 to 8 h |
| C[C@]12C[C@H](c3ccc(S(C)(=O)=O)cc3)C3=C4CCC(=O)C=C4CC[C@H]3[C@@H]1CC[C@@]2(O)C(F)(F)C(F)(F)F |  | rabbit, plasma |  |  | fraction unbound | 0.05 |
| Cc1ccc(C2=C(c3ccc([18F])cc3)C(=O)OC2(C)C)cc1 | dynamic PET/CT | female nude mouse, SK-OV-3/COX-1 peritoneal tumour | retro-orbital, scan 0 to 9 min |  | time of maximal tumour uptake | ~5 min |
| N#Cc1nc(N2CCOCC2)nc(N(Cc2ccc(F)cc2)CC2CCCNC2)n1 (stereo not shown) |  | female CD-1 mice | intraperitoneal, 10 mg/kg, 0.5 h |  | plasma concentration | 0.473 µg/mL |
| NC12CNCCNCC(NCc3ccc(CNC(=O)CCCC(=O)NCc4ccc(-c5nncnn5)cc4)cc3)(CNCCNC1)CNCCNC2.[64Cu+2] | OLINDA dosimetry | bladder wall | pretargeting, 48 h interval |  | absorbed dose | 0.0365 rad/mCi |
| CN1CCCNC(=O)c2cccc(c2)C(=O)NCCCN(C)CCCNc2cccc3c2C(=O)c2cccc(c2C3=O)NCCC1 |  | tumour-free KSN/Slc nude mice, kidney | dose not given, 10 days |  | kidney histopathology | no effect |
| COc1cc(CNC(=O)CCCC/C=C/C(C)C)ccc1N | eye-wiping | C57BL/6 mice, both sexes | ocular instillation, 1 min |  | moderate pain-producing concentration | 0.233 mg/mL |
| NCCCC(=O)OCC(=O)c1cc(F)c(O)cc1F.O=C(O)C(F)(F)F | photolysis, item: GABA appearance | unbuffered water |  |  | quantum yield | 0.21 |
| CN(C)c1cccc2c(S(=O)(=O)NCCCCCC(=O)NO)cccc12 | fluorescence |  |  |  | emission wavelength | 500 nm |
| CC[C@H](C)[C@H](NC(=O)[C@H](CC(C)C)NC(=O)[C@H](Cc1c[nH]c2ccccc12)NC(=O)[C@H](C)NC(=O)[C@@H](NC(=O)[C@H](Cc1ccccc1)NC(=O)[C@H](CC(=O)O)NC(=O)[C@H](CCCNC(=N)N)NC(=O)[C@H](C)NC(=O)[C@H](C)NC(=O)[C@H](CC(C)C)NC(=O)[C@H](C)NC(=O)[C@H](CC(=O)O)NC(=O)[C@H](CC(C)C)NC(=O)[C@@H](NC(=O)[C@@H](NC(=O)[C@H](C)NC(=O)[C@H](CC(C)C)NC(=O)[C@H](CCC(=O)O)NC(=O)[C@H](CO)NC(=O)[C@H](CO)NC(=O)[C@H](Cc1ccccc1)NC(=O)[C@@H](NC(=O)CNC(=O)[C@H](CCC(=O)O)NC(=O)CNC(=O)[C@@H](N)Cc1c[nH]cn1)[C@@H](C)O)[C@@H](C)O)[C@@H](C)CC)[C@@H](C)CC)C(=O)N[C@@H](C)C(=O)N[C@H](C(=O)N[C@@H](CCCCN)C(=O)N[C@H](C(=O)N[C@H](C(=O)N[C@@H](CC(=O)O)C(=O)N[C@@H](CCCCN)C(=O)N[C@@H](CCCCN)C(=O)O)[C@@H](C)O)[C@@H](C)CC)[C@@H](C)O | immunoaffinity LC-MS/MS | healthy human subjects, plasma | subcutaneous, 10 mg once weekly, day 36 after 6 doses, steady state, geometric mean |  | AUClast | 14.3 nM·h |
| CCCC[C@H](NC(=O)CNC(=O)CNC(=O)CN1CCN(CC(=O)O)CCN(CC(=O)O)CC1)C(=O)N[C@H]1CC(=O)NCCCC[C@@H](C(N)=O)NC(=O)[C@H](Cc2c[nH]c3ccccc23)NC(=O)[C@H](CCCNC(=N)N)NC(=O)[C@@H](Cc2ccccc2)NC(=O)[C@H](Cc2c[nH]cn2)NC1=O [gallium-67 labelled] |  | C57 mice, B16/F1 melanoma | 24 h |  | tumour to skin uptake ratio | 8.27 |
| O=C(O)[C@@H]1C[C@@H](O)CN1C(=O)[C@@H]1CCCN1 | potentiometric titration |  | 37 °C, MA complex, together with: Fe(III) |  | log beta | 15 |
| N=C(N)NCCC[C@@H]1NC(=O)[C@H](Cc2c[nH]c3ccccc23)NC(=O)[C@@H](CC2CCCCC2)NC(=O)[C@@H]2CCCN2C(=O)[C@@H](NC(=O)CCc2ccccc2)CCCNC1=O |  | C57BL/6J mice, brain | oral, 1 mg/kg, two-compartment model |  | apparent central volume (V1/F) | 0.18 µg/(ng/g) |
| O=C(O)CN1CCCN2CCN(CC1)CCN(CC(=O)O)CC2 [copper-64 labelled] |  | Lewis rat, male, juvenile, kidney | intravenous, 100 µCi, 24 h |  | kidney uptake | 0.18 ± 0.05 %ID/g |
| Cc1[nH]c(/C=C2\C(=O)Nc3ccc(F)cc32)c(C)c1NC(=O)CCN1CCN(C)CC1 |  | dog plasma | 80 ng/mL, 24 h in injector after processing, 4 °C |  | accuracy deviation | -8.39% |
| NCCCC(=O)OCC(=O)c1ccc(O)c(C(F)(F)F)c1.O=C(O)C(F)(F)F | photolysis at 300 nm | ammonium acetate buffered acetonitrile-water | pH 5.0, 0.01 mol/L buffer |  | quantum yield of disappearance | 0.24 |
| Oc1ccc2ccccc2c1/N=N/c1ccc(/N=N/c2ccccc2)cc1 |  | extracted rat blood QC samples | 0.2 µg/L, 12 h, room temperature, short-term stability |  | measured concentration | 0.22 µg/L |
| CCCC[C@H](NC(=O)CNC(=O)CNC(=O)CN1CCN(CC(=O)O)CCN(CC(=O)O)CCN(CC(=O)O)CC1)C(=O)N[C@H]1CC(=O)NCCCC[C@@H](C(N)=O)NC(=O)[C@H](Cc2c[nH]c3ccccc23)NC(=O)[C@H](CCCNC(=N)N)NC(=O)[C@@H](Cc2ccccc2)NC(=O)[C@H](Cc2c[nH]cn2)NC1=O [copper-64 labelled] |  | female C57 mouse, B16/F1 melanoma | intravenous, 0.037 MBq, 0.5 h | relative to: tumour over heart | uptake ratio | 2.53 |
| CC(C)CCCC(C)CCCC(C)CCO[C@@H]1O[C@H](CO)[C@@H](O[C@H]2O[C@H](CO)[C@@H](O)[C@H](O)[C@H]2O)[C@H](O)[C@H]1O (stereo partly shown) | dynamic surface tension |  | 0.0145 mmol/L |  | induction time | 25.6 s |

Excerpt of the above:
| Compound | assay | test system | setting | how to read | endpoint | result |
| --- | --- | --- | --- | --- | --- | --- |
| CC(C)(C)ONc1nc(Nc2ccnc(C(F)(F)F)c2)nc(-c2cccc(C(F)(F)F)n2)n1 |  | female Balb/cA nude mice xenograft | oral, 54.14 mg/kg, AUC(0-24 h) | relative to: tumour over plasma | tissue/plasma ratio | 4.8 |
| CC(C)[C@H](NC(=O)CNC(=O)[C@H](CCC(N)=O)NC(=O)[C@H](C)N)C(=O)O | LC-MS/MS | human, plasma | intravenous, 30 mg/kg three times daily, day 2, first dose, 10 min infusion, geometric mean |  | AUC(0-last) | 0.56 µg·h/mL |
| COc1ccc(/C=C/c2ccc(-c3ccc(C)cn3)nc2)cc1 | TCSPC | water, HEPES 100 mM | pH 7.4, zinc-free ligand |  | radiative decay rate constant | 0.04 ns⁻¹ |
